Earlier results that unrelated publications cite.
Each line is one published result; not all experiments were run side by side. Positions of bridges follow the written chain, without caps; N, C: chain ends. No end group written: not given here.
B1: CCL4; sequence looked up; chain APMGSDPPTACCFSYTARKLPRNFVVDYYETSSLCSQPAVVFQTKRSKQVCADPSESWVQEYVYDLELN

Molecule | tested on | assay | system | setting | measurement | value
deltorphin I | human opioid receptor DOP | binding |  |  | Ki | 1.73 nM
cilgavimab | SARS-CoV-2 spike protein | binding |  |  | Kd | 0.013 nM
CCL3 | US28 T12A | binding, radioligand competition |  |  | Kd | 4.1 nM
DPDPE | human opioid receptor KOP | binding |  |  | Ki | > 10000 nM
B1 (CCL4) | US28 T11A | binding, radioligand competition |  |  | Kd | 2.7 nM
pegcetacoplan | bacteria |  |  | concentration not given, without S9 activation | Ames reverse mutation | negative
enfortumab vedotin |  |  | rat |  | half-life | 24 to 32 h
RLEICQNVCYYLGTL (disulfide 5-9 (inferred)) (disulfide) | streptavidin | binding, bacterial display flow cytometry |  |  | Kd | 10 nM
DAPI | HCV NS3 helicase | helicase activity, inhibitor |  |  | IC50 | 1100 nM
omiganan |  |  | rat erythrocytes | 200 µM | hemolysis | 0%
KKTKPTPPPKPSHLK | Abp1 SH3 domain (Saccharomyces cerevisiae) | binding | peptide |  | Kd | 270 nM
AIP-III D4A | agrC (Staphylococcus aureus, UniProt O07911) | antagonist |  |  | IC50 | 0.485 nM
buforin II | Staphylococcus aureus |  | ATCC 25923 | literature value | MIC | 12.5 µM

For quick reference, copied from above:
Molecule | tested on | assay | system | setting | measurement | value
buforin II | Staphylococcus aureus |  | ATCC 25923 | literature value | MIC | 12.5 µM
